Results gathered from unrelated publications.
Each numbered part is a random draw from the data of one study; scales do not carry over between parts. Changes are numbered by the printed parent chain.

Study 1 — technique: protein binding microarray; molecule type: double-stranded DNA, one strand shown; medium: in vitro; tested at: not given; reference: not given; reading: higher = stronger binding; measurement: E-score
Target: Histone acetyltransferase KAT6A, both winged helices, GST fusion (KAT6A, Homo sapiens, UniProt Q92794, residues 1-181)
Notes: 8-mer, flanks averaged, mean of 2 arrays, mostly near background
Residues (chain): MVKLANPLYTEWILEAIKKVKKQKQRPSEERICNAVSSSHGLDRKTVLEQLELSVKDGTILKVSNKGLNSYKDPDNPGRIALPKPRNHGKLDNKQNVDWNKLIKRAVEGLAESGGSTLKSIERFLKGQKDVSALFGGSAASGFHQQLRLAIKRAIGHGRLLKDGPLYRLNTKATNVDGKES
ACTGCACA: -0.192
GAGAATAA: -0.129
GCCAGAGC: -0.0318
AATAGCAT: -0.184
AGCCGCTA: 0.233
CTTCGGTC: 0.0262
TAATCTGA: -0.096
CAGTACAA: -0.13
CCAGTGGC: -0.166
CCGGTCGA: 0.135
TTAGTCAA: -0.0408
GGGTATAC: 0.0236
ATCACGTG: -0.0443
GCCTGGCC: 0.0284
CTGAGGAA: -0.0231
CCAGCCCG: -0.0379
AAATCAGA: -0.0943
CGCATTTA: 0.0776
AGAGTAGG: -0.25
AGACCCCG: 0.167
CGCACCAA: 0.0778
CATCTCGG: -0.018
CTAGTCTC: -0.211

Study 2 — target: CCNE2, cyclin fold, Cln2 fusion (human); technique: yeast growth competition, sequencing; medium: yeast; notes: weak parent motif; reference: not given; reading: higher = stronger binding; measurement: normalised enrichment score
Parent: ASZ1 docking peptide (human); GFGFLLFICKLTF
G1A: 0.906
L5A: 0.72
T12A: 0.922
K10A: 0.847
F2A: 0.629
F4A: 0.419

Study 3 — technique: RNA Bind-n-Seq; molecule type: RNA; medium: in vitro; tested at: 365 nM; reference: no-protein control; reading: higher = stronger binding; measurement: RBNS enrichment (R)
Target: RNA binding protein fox-1 homolog 2, RRM domain, GST-SBP tag (RBFOX2, Homo sapiens, UniProt O43251-10, residues 100-194)
Notes: natural RNA segment, single round, ends assumed
Shared flanks, not repeated: GGGAGUUCUACAGUCCGACGAUC … UGGAAUUCUCGGGUGCCAA
Target sequence (chain): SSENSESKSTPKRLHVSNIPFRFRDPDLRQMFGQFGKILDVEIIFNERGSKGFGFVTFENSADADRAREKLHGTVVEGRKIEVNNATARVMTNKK
AUGGGCUUGUGACCCUAAACUUGCAGGCAAGGUUAGCUGCUUUAGUAAGUAGAAUUUUGUGGUCUUUUUGUUUUUUACAUAGUACCAAGCCUUGAUAAUUAUGAAUUUUU: 0.661
UUUUGGAACAUUUAUGUAAGAUUGAAAUGUAUUUGAGAACUGCAUUAAAACUUUUAACUAAAGCCCCAGACUCUUUUGCACCUGGCAGCCAGUCAGGCUGGAUUUGGCCA: 0.587
UGAAGAGCUGCGCCCUGGUUUCGCCGGACAGAGUUGGUGUUUGGAGCCCGACUGCCCUCGGGCACACGGCCUGCCUGUCGCAUGUUUGUGUCUGCCUCGUUCCCUCCCCU: 10.1
UGUUGUUGACACCUGUAUUUAAUGACACCUGCACACCUUUCAAAUAAAAACAUGUUUUUCUUCAAGUCUCUGUGUAUUCAAAUCAAUUUUGUGUGUGUGCCGAUAUUGGA: 0.405
ACGAGGGGCCUGCCCCCCGCCCUACCGGCUUUUGGAUUCUGGGAGGGGAACUCUGCCUCCCUGCAAAUCUUGCAGCCCCUCCUGCCCAGGGCACCCCUCAAGGACUGCCC: 0.16
CAGCUGGGGGGCCAACUGAGGCCCUGACCCUCUUCUCCUGUCCCAUCUUCUGAGAGGGCUUCUCAGCCUGGAAACUAUGGAAACAGCAUCAAAGAGAGAAAAGAAUGUGG: 2.02
UCCUUAGUUUUCAUAUGUUGGUUAUUCAUAUGUCUAUUUAUAUGUAUAUUUAUUUUUAUGUAUGUUACUAUGUAAAUAUGGUUUGCAGUUGUUUUUGUGUGGAAUCUUGU: 1.9
AUCAAAGUAGGACAUGCAUCAUCCUCCUAAUUUUAAAUGUUGGCUCUGAUUUUAAAGUGGUGCAUUUGAUUCCAGCCUUGGUAAUGGAGAGUUUGCAAACACACAGCGGC: 2.53
CUCCAGAGGGCCAGCCUCUGCUGAGCGGGGGAAGUGGGCACUGACUACAGCAGGUGGAGAUGGUGCAGGGCGGGGUGAUGAGGUUAUAAAACUAUGGAACCUCCUCUGGC: 0.532
UGCACCCUAUUCAGGUCAGGGACACUGCCACCUCAUGGUCUGAUUCAGGGGCAUUUUUUUUUUUAGCCAGACUCUUUCCAAUCUCCUCCUUUCCUCCCAAGUCCACUUUA: 0.516
CCUUUCCCCUCCCCUCUCUUCCUCCCCUCUGCACUUUGUUUACUUGUUUUGCACAGACGUGGGCCUGGGCCUUCUCAGCAGCCGCCUUCUAGUUGGGGGCUAGUCGCUGA: 1.99
AGUGCUUUACAUGCUGUGCUCUUUGAAGAGAUUUCAACAAGAAUAUUGUAUGUUAAAGCAUCAGAGAUGGUAAUCUACAGCUCACCUCUGAAGGCAAAUAUAAGCUGGGA: 0.201

Study 4 — technique: protein-binding microarray; molecule type: double-stranded DNA, one strand shown; medium: in vitro; tested at: 250 nM; notes: 60-bp whole probe; added: salmon DNA 0.4 mg/ml; reference: random background probes; reading: higher = stronger binding; measurement: log fluorescence; shared flanks, not repeated: GCCTAGCAC … GTCTTGATTCGCTTGACGCTGCTG
Target: Interferon regulatory factor 7, full length, phosphomimetic (IRF7, Homo sapiens, UniProt Q92985, residues 1-503, S101K/S471D/S472D/S475D/S476D/S477D/S483D/S484D/S487D)
Construct (chain): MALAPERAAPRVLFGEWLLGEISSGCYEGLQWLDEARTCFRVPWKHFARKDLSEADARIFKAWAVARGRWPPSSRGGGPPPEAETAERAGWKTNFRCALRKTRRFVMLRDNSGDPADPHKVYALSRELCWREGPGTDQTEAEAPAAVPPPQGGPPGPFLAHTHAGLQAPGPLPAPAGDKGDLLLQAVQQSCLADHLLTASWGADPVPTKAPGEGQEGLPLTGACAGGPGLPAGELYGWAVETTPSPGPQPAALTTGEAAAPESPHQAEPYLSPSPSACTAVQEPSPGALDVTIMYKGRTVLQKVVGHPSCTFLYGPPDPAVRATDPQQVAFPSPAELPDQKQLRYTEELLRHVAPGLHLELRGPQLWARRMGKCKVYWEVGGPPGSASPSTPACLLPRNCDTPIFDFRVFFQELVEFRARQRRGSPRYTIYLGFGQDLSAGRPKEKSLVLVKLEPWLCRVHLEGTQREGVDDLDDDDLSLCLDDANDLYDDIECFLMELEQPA
GACGATTTCGGGACTGGATACGTGCTA: 0.212 z-score
GACGGTTCCCTATTCCTGACGTGCTAG: 2.18 z-score
AACATACTCGTTTACATTTTGTGCTAG: 1.52 z-score
TCAAATTGTCCTTTCACACTGTGCTAG: 0.361 z-score
CTGTCTGAGGACACCCTGGCGTGCTAG: -0.0452 z-score
GACGGTTCCGACACTGGGGACGTGCTA: -0.123 z-score
GACGGACTGGACACGGGGGACGTGCTA: 0.138 z-score
TGTTTTTCATTGTTTTTCATCGTGCTA: 2.57 z-score
AGATTTTTTTTCCTAATTGAGTGCTAG: 1.09 z-score
TCACGTCTGAGCTCCGTACTGTGCTAG: -0.142 z-score
GACGATTTCGGTCTCGAGACGTGCTAG: 1.08 z-score
CCTGTAATCCCAGCTACTCAGTGCTAG: 0.0928 z-score
GACGATATCGCGTATCGAGACGTGCTA: 0.317 z-score
TAAGGTTTCGGTCTCGGTTAGTGCTAG: 9.11 z-score
TGTTATTAAATTTTCACGGTGTGCTAG: 0.451 z-score
GACGGACTGGAACTGGGGACGTGCTAG: -0.347 z-score
TCAACTCTTTACATGGGACTGTGCTAG: 0.258 z-score
GACGGTATCCGTTTCCTGACGTGCTAG: 1.89 z-score
GACCAACTGAGTTTCGAGACGTGCTAG: 3.64 z-score
CCTCACATGACTGAATGGACGTGCTAG: -0.0817 z-score
TTAGGTTTCGACACTGGGTTCGTGCTA: 3.27 z-score
GACGGTTTCAGTCTCGAGACGTGCTAG: 2.05 z-score

Study 5 — technique: RNA Bind-n-Seq; molecule type: RNA; medium: in vitro; tested at: 200 nM; notes: whole 134-nt RNA, ends assumed; added: 150 mM LiCl; reference: input library; reading: higher = stronger binding; measurement: log2 enrichment; all molecules: 7-deaza-guanosine replaces G
Target: Fragile X messenger ribonucleoprotein 1, C-terminal low-complexity region (Fmr1, Mus musculus, UniProt P35922)
Shared flanks, not repeated: GGGAGUUCUACAGUCCGACGAUC … UGGAAUUCUCGGGUGUCAAGG
CCUGUGCUACACAUCGUAUGUACCGAAUCGGGGUUUUUUUGGGGUUUUUUUGGGGAGGGGAAAGUAUUAUGUUACGCCGUUCGGAUCUGC: 0.384
CUGUGCUACACAUCGUAUGUACCGAAUCAAAUUUUUUUAAACCCCCCCAAAUUUUUUUAAAAAAGUAUUAUGUUACGCCGUUCGGAUCUG: 0.718
AGUCCUGUGCUACACAUCGUAUGUACCGAAUCGGGGAAAGGGGUGGGGAAAAAGGGGAAAGUAUUAUGUUACGCCGUUCGGAUCUGCACU: -0.27
AAGUCCUGUGCUACACAUCGUAUGUACCGAAUCGGGAAAGGGUUUGGGAAAAAGGGAAAGUAUUAUGUUACGCCGUUCGGAUCUGCACUU: -2.09
CCUCAAGUCCUGUGCUACACAUCGUAUGUACCGAAUCGGUGGGUGGGGUGGGGAAAGUAUUAUGUUACGCCGUUCGGAUCUGCACUUCCA: -0.564
UGGGAGGUGGAUUUUGUUUAUUUUUUUAGCUCAUUUCCAGGGGUGGGAACUUUUUUUUAAUAUGUGUCAUGAAUAAAGUUGUUUUUGAAA: -0.822
UACUCAGCACAGAAAUUCAGGAGACACAGACAAGUUCUUCCACGAUGUCGUACAGACGAGAACUAGAGAAAUACCGUGACCUGGAUGAAG: 0.0734
AGUCCUGUGCUACACAUCGUAUGUACCGAAUCGGGGUGGGGAAAAAGGGGUUUGGGGAAAGUAUUAUGUUACGCCGUUCGGAUCUGCACU: -1.35
UGUGCUACACAUCGUAUGUACCGAAUCGGGUUUUUUUGGGGUUUUUUUGGGUUUUUUUGGGGAAAGUAUUAUGUUACGCCGUUCGGAUCU: 1.69
UCCUCAAGUCCUGUGCUACACAUCGUAUGUACCGAAUCGGAGGGGAGGAGGAAAGUAUUAUGUUACGCCGUUCGGAUCUGCACUUCCAGC: -2.56
UAACUUUAGAGGAGGAUCUGAUGGAUAUGGCAGUGGACGUGGAUUUGGGGAUGGCUAGAAUGGGUAUGGAGGAGGACCUGGAGGUGGCAA: 1.37
